{"data": "Published values collected from several papers", "note": "Protocols differ between the studies behind these lines. ± marks the error that the study gave."}
{"Compound": "COc1c(CCC[P+](c2ccccc2)(c2ccccc2)c2ccccc2)cc2c(c1OC)OCO2.[I-]", "cell line": "CCRF-CEM", "assay": "SRB", "endpoint": "Log10TGI", "value": "> -4 log M"}
{"Compound": "O=C1CCP(=S)(c2ccccc2)CC1", "cell line": "PC-3", "assay": "ELISA", "setting": "IC50, 72 h", "endpoint": "IL-6 level", "value": "0.1 ± 0.03 pg/mL"}
{"Compound": "C[C@H]1[C@H](C)CC[C@]2(C(=O)O)CC[C@]3(C)C(=CC[C@@H]4[C@@]5(C)CC[C@H](O)C(C)(C)[C@@H]5CC[C@]43C)[C@H]12", "cell line": "MCF7", "assay": "cell growth, MTT", "setting": "100 µg/mL, 48 h", "endpoint": "cell survival", "value": "21.3 ± 0.42%"}
{"Compound": "COc1cc(CCC[P+](c2ccccc2)(c2ccccc2)c2ccccc2)c(OC)c2c1OCO2.[I-]", "cell line": "CCRF-CEM", "assay": "SRB", "endpoint": "Log10LC50", "value": "> -4 log M"}
{"Compound": "Oc1cc(O)cc(-c2cc3ccc(O)cc3o2)c1", "cell line": "MCF7", "assay": "cell growth, MTT", "setting": "7.25 µg/mL, 48 h", "endpoint": "cell survival", "value": "77.24 ± 0.23%"}
{"Compound": "CN1CCN(C2(CNC3CCN(c4cccc(-c5cc6cc(F)ccc6[nH]5)c4)CC3)CCC2)CC1", "cell line": "SK-MEL-28", "endpoint": "CC50", "value": "6280 nM"}
{"Compound": "Cn1cncc1C1=CN(c2ncnc3[nH]cnc23)CCS1", "cell line": "SK-MEL-2", "setting": "melanoma cell line", "endpoint": "CC50", "value": "158000 nM"}
{"Compound": "CN1CCN(S(=O)(=O)c2cc([N+](=O)[O-])ccc2N(CCOS(C)(=O)=O)CCOS(C)(=O)=O)CC1", "cell line": "sample D B-ALL PDX cells", "assay": "cell viability", "test system": "ex vivo", "setting": "48 h, together with: AKR1C3 inhibitor", "how to read": "baseline: with inhibitor over alone", "endpoint": "IC50 fold change", "value": 1.7}
{"Compound": "Nc1ncnc2c1ncn2[C@@H]1O[C@@H]2COP(=O)(O)O[C@H]3[C@@H](O)[C@H](n4cnc5c(=O)[nH]cnc54)O[C@@H]3COP(=O)(O)O[C@H]2[C@H]1O", "cell line": "HFF-1", "assay": "RNA sequencing, item: Reactome antigen cross-presentation", "setting": "upregulated pathways", "how to read": "baseline: mock", "endpoint": "fold enrichment", "value": 5.17}
{"Compound": "CC(C)=CCc1c(O)cc(O)cc1-c1cc2ccc(O)c(CC=C(C)C)c2o1", "cell line": "MCF7", "assay": "cell growth, MTT", "setting": "12.5 µg/mL, 48 h", "endpoint": "cell survival", "value": "78.3 ± 0.82%"}
{"Compound": "COc1c(C)c2c(c(O)c1C/C=C(\\C)CCC(=O)O)C(=O)OC2", "cell line": "U2OS", "assay": "cell proliferation", "test system": "bone cancer", "endpoint": "IC50", "value": "724 nM"}
{"Compound": "CC(C)N1CCC(NC2CCN(c3cccc(-c4cc5cc(F)ccc5[nH]4)c3)CC2)CC1", "cell line": "Hs-578T", "endpoint": "GI50", "value": "1720 nM"}
{"Compound": "Nc1ncc(-c2nc(N3CCOCC3)nc(N3CCOCC3)n2)c(C(F)F)n1", "cell line": "T98G", "setting": "72 h", "endpoint": "GI50", "value": "118 nM"}
{"Compound": "Oc1ccc(C2(c3ccc(O)cc3)c3ccccc3-c3ccccc32)cc1", "cell line": "HepG2 spheroids", "assay": "Hoechst flow cytometry", "setting": "0.10 µM, 96 h", "endpoint": "S phase cells", "value": "11.7 ± 2.74%"}
{"note": "Some of these lines once more:"}
{"Compound": "Nc1ncc(-c2nc(N3CCOCC3)nc(N3CCOCC3)n2)c(C(F)F)n1", "cell line": "T98G", "setting": "72 h", "endpoint": "GI50", "value": "118 nM"}
{"Compound": "Oc1ccc(C2(c3ccc(O)cc3)c3ccccc3-c3ccccc32)cc1", "cell line": "HepG2 spheroids", "assay": "Hoechst flow cytometry", "setting": "0.10 µM, 96 h", "endpoint": "S phase cells", "value": "11.7 ± 2.74%"}
